# Published values from different studies.
# A part holds a random share of what one study measured. Substitutions count along the parent as printed.

# Sample 1
# Target: vanadate, free oxyanion
# Technique: microfluidic competitive inhibition
# Medium: in vitro, cell-free expressed
# Concentration: not given
# Notes: derived from inhibition constants, unchanged parent 676 nM
# Direction: lower = stronger binding
# Starting sequence: PafA, mature enzyme, eGFP fusion (Elizabethkingia meningoseptica, UniProt Q9KJX5); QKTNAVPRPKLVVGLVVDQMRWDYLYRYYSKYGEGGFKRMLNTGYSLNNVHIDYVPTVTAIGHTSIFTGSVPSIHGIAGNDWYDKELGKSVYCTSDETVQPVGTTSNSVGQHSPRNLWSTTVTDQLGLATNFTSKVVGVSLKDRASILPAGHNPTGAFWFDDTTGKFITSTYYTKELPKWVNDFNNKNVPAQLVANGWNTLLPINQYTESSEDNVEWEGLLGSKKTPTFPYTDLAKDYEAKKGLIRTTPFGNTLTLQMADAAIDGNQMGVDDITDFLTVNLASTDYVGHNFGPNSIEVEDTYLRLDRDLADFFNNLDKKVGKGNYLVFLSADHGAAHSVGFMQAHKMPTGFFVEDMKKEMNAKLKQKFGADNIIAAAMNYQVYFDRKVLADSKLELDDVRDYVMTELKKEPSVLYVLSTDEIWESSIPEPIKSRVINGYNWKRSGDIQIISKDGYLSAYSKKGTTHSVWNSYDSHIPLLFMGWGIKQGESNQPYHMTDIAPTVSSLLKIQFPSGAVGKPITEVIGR
Change,oxyanion analog dissociation constant
N491V,540 nM
S170G,346 nM
A458V,592 nM
S467G,442 nM
D300G,1.1 µM
Q206V,677 nM
F312V,648 nM
F229V,808 nM
S95G,888 nM
M356G,668 nM
P190G,601 nM
Y380G,680 nM
D23G,1.02 µM
T104G,1.65 µM
L244G,744 nM
K461G,1.16 µM
S223G,644 nM
K241V,651 nM
Y402V,560 nM
G14V,708 nM
K242V,589 nM
Q125V,899 nM
F276V,519 nM
E34G,740 nM
D23V,1.27 µM

# Sample 2
# Target: CCNF, cyclin fold, Cln2 fusion (human)
# Technique: yeast growth competition, sequencing
# Medium: yeast
# Notes: strong parent motif
# Relative to: not given
# Direction: higher = stronger binding
# Starting sequence: viral docking peptide; KGVKRKLFAEDSS
Change,normalised enrichment score
KGVKRKLFAEFSS [D11F],8.61
KGVKRKLFQEDSS [A9Q],7.97
KGVKAKLFAEDSS [R5A],0.859
KGVKRKFFAEDSS [L7F],0.868
KGVKVKLFAEDSS [R5V],1.73

# Sample 3
# Target: CREBL2, bZIP domain (human)
# Technique: DHFR protein complementation
# Medium: yeast
# Notes: single substitutions, most at no-binding floor
# Relative to: wild-type JUN-FOS pair
# Direction: higher = stronger binding
# Starting sequence: JUN, bZIP domain (human); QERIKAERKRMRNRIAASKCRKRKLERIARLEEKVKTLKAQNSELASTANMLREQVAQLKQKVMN; partner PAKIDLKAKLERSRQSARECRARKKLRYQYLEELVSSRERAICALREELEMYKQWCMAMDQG
Change,binding fitness
Q55E,-1.5 natural log
K36L,-1.32 natural log
L45W,-1.5 natural log
T48I,-1.6 natural log
L31P,-1.39 natural log
E33G,-1.49 natural log
A57C,-1.63 natural log
A40T,-1.54 natural log

# Sample 4
# Target: PABPC1L2, full length, GST fusion (mouse, UniProt A0ABA7IW68)
# Technique: RNAcompete
# Form: RNA
# Medium: in vitro
# Concentration: 20 nM
# Notes: 7-mer, probes averaged, single round
# Relative to: mean of 7-mers
# Direction: higher = stronger binding
# Construct (chain): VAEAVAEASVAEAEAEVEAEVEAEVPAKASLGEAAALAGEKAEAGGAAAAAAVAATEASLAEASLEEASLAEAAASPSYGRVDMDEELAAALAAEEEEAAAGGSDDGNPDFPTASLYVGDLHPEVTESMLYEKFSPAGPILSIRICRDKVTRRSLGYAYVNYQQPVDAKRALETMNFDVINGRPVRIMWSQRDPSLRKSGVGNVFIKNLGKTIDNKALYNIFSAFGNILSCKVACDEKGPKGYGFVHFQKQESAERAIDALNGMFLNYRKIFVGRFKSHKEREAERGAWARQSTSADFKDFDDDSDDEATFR
Sequence,7-mer Z-score
GGAGCGC,0.0243
CUUCGGU,-0.396
AUAUGUC,-0.197
AUGAGAA,0.122
CUGCCAU,-0.191
CUCAGUC,-0.215
UUGCCGC,-0.269
AAGGCUU,0.1

# Sample 5
# Target: OGT, full length, His-tagged (human)
# Technique: phage display, sequencing
# Medium: in vitro
# Concentration: 1 µg OGT
# Notes: single substitutions, 15-mer displayed peptide, unchanged parent 5.27
# Relative to: input library
# Direction: higher = stronger binding
# Starting sequence: peptide; GDFPVMFMPKYSIIY
Change,fold enrichment [fold]
GDFSVMFMPKYSIIY [P4S],8.01
GDFPVMFMPKYSIWY [I14W],3.14
GDFPVMFIPKYSIIY [M8I],1.24
WDFPVMFMPKYSIIY [G1W],6.79
GDFPHMFMPKYSIIY [V5H],4.45
GDFPVMFMAKYSIIY [P9A],2.84
GDFPVMFMPKKSIIY [Y11K],2.23
GDFPVMFDPKYSIIY [M8D],1.1

# Repeated from above (sample 5):
Change,fold enrichment [fold]
GDFPVMFMAKYSIIY [P9A],2.84
GDFPVMFMPKYSIWY [I14W],3.14
GDFPVMFDPKYSIIY [M8D],1.1
GDFSVMFMPKYSIIY [P4S],8.01
